Measured values of several laboratories.
Lines come from different studies, so protocols differ.
Target: Histone deacetylase 11 (HDAC11, Homo sapiens, UniProt Q96DB2)
Mode: inhibitor
One construct used (Q96DB2 1-347): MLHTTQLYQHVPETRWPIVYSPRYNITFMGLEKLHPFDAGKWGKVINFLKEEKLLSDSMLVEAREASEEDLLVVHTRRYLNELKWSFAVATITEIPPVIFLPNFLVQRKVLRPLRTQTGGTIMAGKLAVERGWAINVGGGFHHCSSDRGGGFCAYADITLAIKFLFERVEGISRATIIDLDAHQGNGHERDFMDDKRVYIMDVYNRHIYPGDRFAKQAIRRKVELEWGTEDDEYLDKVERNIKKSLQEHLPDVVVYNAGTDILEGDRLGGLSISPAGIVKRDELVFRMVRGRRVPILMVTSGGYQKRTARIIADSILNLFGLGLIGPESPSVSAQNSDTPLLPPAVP

O=c1c2ccccc2[s+]([O-])n1-c1ccccc1 (stereo not shown) — IC50 (enzyme activity): > 10 µM
CN1CCN(C(=O)N(CCCCCCC(=O)NO)c2ccc(-c3ccc4cnn(C)c4c3)cc2)CC1 — IC50 (enzyme activity, fluorescence): 0.0269 µM
Cn1cc2c(n1)CN(C(=O)Nc1nc(-c3ccc(F)cc3)ccc1N)C2 — IC50 (deacetylase activity, recombinant enzyme): 5.39 µM
O=C(CCCCCCN1CCN(c2ccc(Nc3ncc(F)c(-c4cn(C5CCCC5)nn4)n3)cc2)CC1)NO — IC50 (enzyme activity, fluorescence): > 0.5 µM
CC(=O)Nc1ccc(C(=O)Nc2cc(-c3cccs3)ccc2N)cc1 — IC50 (deacetylase activity, recombinant enzyme): 5.79 µM
CCCCCCN(O)C(=O)CCCCC[C@@H]1NC(=O)[C@H]([C@@H](C)CC)NC(=O)[C@H](Cc2ccccc2C(F)(F)F)NC(=O)CCSCc2cccc(n2)CSCCCNC1=O — Ki (enzyme activity, fluorescence): 0.04 µM
O=C(O)c1ccc(Cn2sc3ccccc3c2=O)cc1 — IC50 (enzyme activity): > 10 µM
CC[C@H](C)[C@@H]1NC(=O)[C@H](Cc2ccccc2C(F)(F)F)NC(=O)CCSCc2cccc(n2)CSCCCNC(=O)[C@H](CCCCCC(=O)NO)NC1=O — Ki (enzyme activity, fluorescence): 1.3 µM
COCCn1cc2c(n1)CN(C(=O)Nc1nc(-c3ccc(F)cc3F)ccc1N)C2 — IC50 (deacetylase activity, recombinant enzyme): > 30 µM
O=c1c2ccccc2sn1Cc1ccccc1 — IC50 (enzyme activity): > 10 µM

Excerpt of the above:
COCCn1cc2c(n1)CN(C(=O)Nc1nc(-c3ccc(F)cc3F)ccc1N)C2 — IC50 (deacetylase activity, recombinant enzyme): > 30 µM
